Experimental data pooled from the literature.
Every numbered part comes from another study and shows a few of its results, in no order. Values joined by “and” are separate records of one study, mostly repeats; a detail may differ.
Sequence of UniProt P28223 (whole entry, looked up): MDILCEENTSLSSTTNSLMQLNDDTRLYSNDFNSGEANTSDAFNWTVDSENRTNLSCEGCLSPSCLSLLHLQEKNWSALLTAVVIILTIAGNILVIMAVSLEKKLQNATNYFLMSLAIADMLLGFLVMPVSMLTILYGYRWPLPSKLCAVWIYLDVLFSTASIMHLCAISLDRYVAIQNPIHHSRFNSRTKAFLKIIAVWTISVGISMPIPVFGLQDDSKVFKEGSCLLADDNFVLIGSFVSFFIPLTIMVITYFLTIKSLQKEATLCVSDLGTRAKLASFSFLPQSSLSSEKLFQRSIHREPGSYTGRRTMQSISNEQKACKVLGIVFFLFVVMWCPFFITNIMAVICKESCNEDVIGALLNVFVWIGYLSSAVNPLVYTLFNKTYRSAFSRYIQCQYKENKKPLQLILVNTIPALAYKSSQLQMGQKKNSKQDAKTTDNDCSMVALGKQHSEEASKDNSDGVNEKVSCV

Block 1 — cell line: HH; tested at: 2 µM; time: 48 h; relative to: untreated; endpoint: viability
Cc1ccc(NC(=O)c2cccc(C(C)(C)C#N)c2)cc1Nc1ccc2ncn(C)c(=O)c2c1: 99.2%
C[C@@H]1CCN(C(=O)CC#N)C[C@@H]1N(C)c1ncnc2[nH]ccc12: 75.2%
C=CC(=O)Nc1cccc(Nc2nc(Nc3ccc(N4CCN(C(C)=O)CC4)cc3OC)ncc2C(F)(F)F)c1: 69.3%
C=CC(=O)Nc1ccc(CN2C(=O)N(c3cc(OC)cc(OC)c3)Cc3cnc(Nc4ccc(N5CCN(C)CC5)cc4)nc32)cc1: 75.1%
COc1cc2ncnc(Nc3cccc(Cl)c3)c2cc1OC: 91.3%
O=c1[nH]nc(Sc2ncc([N+](=O)[O-])s2)n1-c1ccc2c(c1)OCCO2: 58.4%
CN1CCCN(C(=O)c2cccc(-c3ccc(/C=C4/C(=O)Nc5ccc(Cl)cc54)o3)c2)CC1: 77.6%
COc1ccc2c(Oc3ccc(NC(=O)c4c(C)n(CC(C)(C)O)n(-c5ccccc5)c4=O)nc3)ccnc2c1: 82.1%

Block 2 — action: inhibitor; tested at: concentration not given; with: with ssDNA; endpoint: remaining activity
Target: DNA polymerase theta, helicase domain (POLQ, Homo sapiens, UniProt O75417)
Sequence of UniProt O75417 (whole entry, looked up): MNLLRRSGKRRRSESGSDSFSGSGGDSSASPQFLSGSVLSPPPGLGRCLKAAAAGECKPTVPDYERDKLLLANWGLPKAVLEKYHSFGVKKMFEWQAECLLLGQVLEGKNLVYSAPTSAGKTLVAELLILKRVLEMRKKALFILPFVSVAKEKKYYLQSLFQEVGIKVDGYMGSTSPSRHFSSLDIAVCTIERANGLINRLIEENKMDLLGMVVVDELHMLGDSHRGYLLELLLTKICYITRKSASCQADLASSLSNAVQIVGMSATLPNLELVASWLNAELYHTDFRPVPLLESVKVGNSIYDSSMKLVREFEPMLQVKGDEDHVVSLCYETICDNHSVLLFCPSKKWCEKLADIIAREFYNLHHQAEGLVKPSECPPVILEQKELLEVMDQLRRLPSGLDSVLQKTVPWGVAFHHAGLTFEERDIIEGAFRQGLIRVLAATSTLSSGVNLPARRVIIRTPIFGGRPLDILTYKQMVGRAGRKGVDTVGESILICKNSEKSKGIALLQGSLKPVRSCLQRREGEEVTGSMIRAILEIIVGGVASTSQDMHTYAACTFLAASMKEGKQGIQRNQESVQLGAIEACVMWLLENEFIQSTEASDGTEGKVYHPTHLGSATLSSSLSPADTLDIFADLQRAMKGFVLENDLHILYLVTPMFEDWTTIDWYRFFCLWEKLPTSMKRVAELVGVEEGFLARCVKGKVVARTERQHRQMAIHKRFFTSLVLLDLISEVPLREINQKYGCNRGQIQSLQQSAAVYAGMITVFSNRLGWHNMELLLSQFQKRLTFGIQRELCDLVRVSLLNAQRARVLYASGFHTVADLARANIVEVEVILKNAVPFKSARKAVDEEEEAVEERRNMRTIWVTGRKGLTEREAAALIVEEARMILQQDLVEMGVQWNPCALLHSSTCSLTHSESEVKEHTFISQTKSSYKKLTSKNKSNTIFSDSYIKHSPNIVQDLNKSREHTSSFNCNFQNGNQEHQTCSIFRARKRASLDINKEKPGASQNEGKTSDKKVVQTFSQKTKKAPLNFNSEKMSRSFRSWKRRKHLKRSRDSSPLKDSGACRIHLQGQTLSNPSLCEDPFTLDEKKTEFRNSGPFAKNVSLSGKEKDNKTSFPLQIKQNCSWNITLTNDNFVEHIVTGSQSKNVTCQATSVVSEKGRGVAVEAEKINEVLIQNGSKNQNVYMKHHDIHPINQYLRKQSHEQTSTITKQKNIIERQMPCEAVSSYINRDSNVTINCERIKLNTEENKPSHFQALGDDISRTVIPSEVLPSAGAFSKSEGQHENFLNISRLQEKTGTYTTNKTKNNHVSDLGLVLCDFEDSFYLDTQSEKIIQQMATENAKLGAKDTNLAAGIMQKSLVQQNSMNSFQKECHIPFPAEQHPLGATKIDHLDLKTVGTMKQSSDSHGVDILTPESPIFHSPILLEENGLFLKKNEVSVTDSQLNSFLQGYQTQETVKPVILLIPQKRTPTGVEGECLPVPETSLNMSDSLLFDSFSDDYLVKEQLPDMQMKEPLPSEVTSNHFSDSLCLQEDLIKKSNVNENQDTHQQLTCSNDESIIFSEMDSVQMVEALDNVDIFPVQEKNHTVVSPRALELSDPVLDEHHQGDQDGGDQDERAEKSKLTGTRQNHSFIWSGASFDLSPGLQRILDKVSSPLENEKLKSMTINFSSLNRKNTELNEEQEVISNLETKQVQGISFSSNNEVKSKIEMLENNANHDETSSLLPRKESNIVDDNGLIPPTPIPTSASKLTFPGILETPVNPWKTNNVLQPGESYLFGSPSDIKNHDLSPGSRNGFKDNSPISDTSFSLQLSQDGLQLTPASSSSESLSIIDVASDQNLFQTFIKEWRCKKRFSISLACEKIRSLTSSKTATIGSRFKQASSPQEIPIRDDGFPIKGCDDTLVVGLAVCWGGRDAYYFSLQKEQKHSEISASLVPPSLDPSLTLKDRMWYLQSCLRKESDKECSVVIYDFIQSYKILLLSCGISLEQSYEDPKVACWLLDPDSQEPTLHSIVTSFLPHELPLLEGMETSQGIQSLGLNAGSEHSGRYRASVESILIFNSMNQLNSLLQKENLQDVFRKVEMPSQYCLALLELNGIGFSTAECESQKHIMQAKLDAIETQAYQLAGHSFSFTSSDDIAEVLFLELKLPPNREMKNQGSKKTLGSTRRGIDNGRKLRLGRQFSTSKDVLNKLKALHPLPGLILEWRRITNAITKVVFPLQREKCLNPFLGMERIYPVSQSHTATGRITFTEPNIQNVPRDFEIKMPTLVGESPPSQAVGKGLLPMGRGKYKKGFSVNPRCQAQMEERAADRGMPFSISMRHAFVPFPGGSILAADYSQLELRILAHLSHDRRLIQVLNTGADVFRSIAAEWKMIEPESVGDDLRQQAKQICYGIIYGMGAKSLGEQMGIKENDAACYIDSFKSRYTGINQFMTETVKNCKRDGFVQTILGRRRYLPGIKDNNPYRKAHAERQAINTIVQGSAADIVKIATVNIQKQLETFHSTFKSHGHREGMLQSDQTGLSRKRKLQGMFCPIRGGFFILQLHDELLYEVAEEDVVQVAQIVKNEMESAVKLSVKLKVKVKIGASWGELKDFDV
Cc1ccc(NC(=O)CSc2ncc(S(=O)(=O)c3ccc(C(C)C)cc3)c(=O)[nH]2)cc1C: 74.9% and 79.7%
O=C(O)/C(=C/c1c(C(=O)O)[nH]c2cc(Cl)cc(Cl)c12)c1ccccc1: 108% and 106%
COc1cccc2c1C(=O)c1c(O)c3c(c(O)c1C2=O)C[C@@](O)(C(=O)CO)C[C@@H]3O[C@H]1C[C@H](N)[C@H](O)[C@H](C)O1: 47.9% and 48.3%
CCc1ccc(/C=C2/SC(=S)NC2=O)cc1: 44.9% and 48.3%
CC(=O)Oc1cccc2c1C(=O)c1c(OC(C)=O)cc(C(=O)O)cc1C2=O: 55.6% and 59.1%
CC1(C)Cc2c(-c3ccccc3)c(-c3ccc(Cl)cc3)c(CC(=O)O)n2C1: 70.2% and 66.3%
O=C(Nc1cc2cc[nH]c2cn1)c1ccccc1: 55% and 55.6%
O=C(CSc1ncc(S(=O)(=O)c2ccc(Br)cc2)c(=O)[nH]1)NCc1ccc(Cl)cc1: 54.3% and 58.3%

Block 3 — method: Vi-Cell counting; time: 6 days; relative to: DMSO; endpoint: cell count
SMILES: CC(C)C[C@H]1NC(=O)[C@H](N(C)C(=O)[C@@H](CC2CCC2)NC(=O)[C@H]2C[C@H](F)CN2C(=O)C2(C(F)(F)F)CC(F)(F)C2)CCCCNC(=O)C2(CC2)NC(=O)[C@@H](Cc2cc(Cl)ccc2Cl)N(C)C1=O
NCI-H1299; 600 nM: 1.07 and 0.92 and 0.936
HCC4006; 20 nM: 0.992 and 1.01 and 0.932
A549; 60 nM: 1.06 and 1.01 and 0.995
NCI-H1299; 2 µM: 1.09 and 0.945 and 1.06
NCI-H446; 60 nM: 0.892 and 1.17 and 0.991

Further values, each from its own experiment
Nc1cnc(N2CCc3cc(S(=O)(=O)Nc4c(F)cc(Cl)cc4F)cc(N4CCCC4=O)c32)nc1 — inhibition (HTR2A (Homo sapiens, UniProt P28223); ligand displacement; 10 µM): -2.82%
Cc1cc2c(C(N)=O)c(N)n(-c3c(C)ccc(O)c3C)c2nc1C — binding remaining (ABL1 non-phosphorylated human; KINOMEscan; 1000 nM; relative to: control): 0.25%

Repeated from above (block 1):
C=CC(=O)Nc1ccc(CN2C(=O)N(c3cc(OC)cc(OC)c3)Cc3cnc(Nc4ccc(N5CCN(C)CC5)cc4)nc32)cc1: 75.1%
COc1cc2ncnc(Nc3cccc(Cl)c3)c2cc1OC: 91.3%
C=CC(=O)Nc1cccc(Nc2nc(Nc3ccc(N4CCN(C(C)=O)CC4)cc3OC)ncc2C(F)(F)F)c1: 69.3%
